# Results of several laboratories.
# Parts stem from different laboratories: compare values within a part only. Changes are numbered by the printed parent chain.

# Sample 1
# Target: Histone acetyltransferase KAT6A, both winged helices, GST fusion (KAT6A, Homo sapiens, UniProt Q92794, residues 1-181)
# Technique: protein binding microarray
# Molecule type: double-stranded DNA, one strand shown
# Sample: in vitro
# Tested at: not given
# Setting: 8-mer, flanks averaged, mean of 2 arrays, mostly near background
# Baseline: not given
# Reading: higher = stronger binding
# Target sequence (chain): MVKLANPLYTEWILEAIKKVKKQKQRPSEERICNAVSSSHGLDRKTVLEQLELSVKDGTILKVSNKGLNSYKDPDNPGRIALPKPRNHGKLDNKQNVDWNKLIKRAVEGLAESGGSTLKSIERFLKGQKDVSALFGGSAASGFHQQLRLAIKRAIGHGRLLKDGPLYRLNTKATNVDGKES
Strand,E-score
GATTGTAA,-0.129
CTAGTGCA,-0.00517
CGTTTAAG,0.0668
CCGGTTCG,0.159
ATAACAAA,-0.00217
CTCAACAG,-0.0581
CTCTCTCC,-0.0706
AGTTAACT,0.34
ACGCAGGA,0.0249
AGCCCCCT,-0.279
CTACAACC,-0.0676
ACCTCACA,-0.101
AGCCAATA,-0.159
ACTTAGGC,-0.148
CTTAGGTA,-0.283
CGTACTCC,0.0456
CGGCGAGC,0.268
CCGTGCAC,0.161
GACCAGCA,-0.152
CTAGCTCA,-0.228
AGCACTAT,-0.0152
ATGCGTAA,0.15
ATGCCATG,-0.0318

# Sample 2
# Target: Interferon regulatory factor 7, full length, phosphomimetic (IRF7, Homo sapiens, UniProt Q92985, residues 1-503, S471D/S472D/S475D/S476D/S477D/S483D/S484D/S487D)
# Sequence of UniProt Q92985 (whole entry, unmodified, looked up): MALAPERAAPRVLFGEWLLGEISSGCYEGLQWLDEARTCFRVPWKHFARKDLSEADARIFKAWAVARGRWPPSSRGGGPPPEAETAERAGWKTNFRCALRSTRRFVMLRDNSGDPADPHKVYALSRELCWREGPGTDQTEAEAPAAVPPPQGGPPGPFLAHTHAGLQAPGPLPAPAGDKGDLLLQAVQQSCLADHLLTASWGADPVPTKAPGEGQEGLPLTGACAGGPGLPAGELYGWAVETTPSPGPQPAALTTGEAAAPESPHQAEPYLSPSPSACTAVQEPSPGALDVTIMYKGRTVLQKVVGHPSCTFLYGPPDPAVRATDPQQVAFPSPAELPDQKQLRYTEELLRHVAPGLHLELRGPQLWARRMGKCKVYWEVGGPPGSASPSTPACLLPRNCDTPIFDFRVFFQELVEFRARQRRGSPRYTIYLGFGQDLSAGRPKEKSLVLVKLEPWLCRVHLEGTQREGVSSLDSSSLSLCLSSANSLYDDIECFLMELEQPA
# Technique: protein-binding microarray
# Molecule type: double-stranded DNA, one strand shown
# Sample: in vitro
# Tested at: 2200 nM top
# Setting: 60-bp whole probe
# Added: salmon DNA 0.4 mg/ml
# Baseline: random background probes
# Reading: higher = stronger binding
# All sequences stand within: GCCTAGCAC … GTCTTGATTCGCTTGACGCTGCTG
Strand,fitted relative affinity [z-score]
TTAGGTTTCGACTATCGGCTAGTGCTA,3
TTAGGTTTCTACTTTCGGTTAGTGCTA,10.9
GACGGTACCGGACTGGGGACGTGCTAG,-0.573
TTAGATTTCAGTTTTGATTAGTGCTAG,2.3
TCAGATCTCAGTATCGATTAGTGCTAG,0.516
TTAGGTTTCGGCTCCGGTTAGTGCTAG,3.55
GACTGACTGGGGTATCGGGACGTGCTA,-0.574
ATGCTTCTGGTCTTCTGGGCGTGCTAG,0.817
TCATTTTTTACTTCGGGACTGTGCTAG,1.85
TCATGTCTGCCTTTCAAACTGTGCTAG,1.7
GACGGTATCCTTTTCCTGACGTGCTAG,1.41
TTGACTCTTTCTGTCAGTTTGTGCTAG,1.52
TCCATTTTCTAAATGCCCTGGTGCTAG,3.59
TTCATTATTGTTTCCTCTTTGTGCTAG,2.82
TTTTTTTTTTTTGTATTTTTGTGCTAG,2.63
TTAAGTATCCTACTGCTTTAGTGCTAG,0.507
TTAGGACTGGGTCTCGTTTAGTGCTAG,-0.0187
CTGTGTGTCAGGTTTACTAGGGTGCTA,-0.042
CAACTTTTTTTAATTGAGAAGTGCTAG,-0.244

# Sample 3
# Target: CCND1, cyclin fold, Cln2 fusion (human)
# Technique: yeast growth competition, sequencing
# Sample: yeast
# Setting: weak parent motif
# Baseline: not given
# Reading: higher = stronger binding
# Starting sequence: CABLES2 docking peptide (human); ICAKRSLCAAFSV
Change,normalised enrichment score
F11A,-0.101
I1A,-0.14
L7A,-0.129
S12A,0.0814
K4A,-0.206

# Sample 4
# Target: ABI1, truncated, D143A, DHFR fusion (Arabidopsis thaliana)
# Technique: DHFR PCA, deep sequencing
# Sample: yeast
# Setting: methotrexate growth selection, single substitutions
# Added: (+)-ABA 2500 µM
# Baseline: wild-type fitted maximum
# Reading: higher = stronger binding
# Starting sequence: PYL1, truncated, DHFR fusion (Arabidopsis thaliana); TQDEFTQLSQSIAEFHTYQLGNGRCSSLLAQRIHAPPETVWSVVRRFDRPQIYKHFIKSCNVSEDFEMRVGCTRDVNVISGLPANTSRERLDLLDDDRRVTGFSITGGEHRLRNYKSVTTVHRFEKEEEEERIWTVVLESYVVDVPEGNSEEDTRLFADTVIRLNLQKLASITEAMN
Change,relative binding score
R32N,87.1%
S171D,97.6%
T86D,95.7%
H34P,109%
F56E,-7.25%
P50F,1.07%
S9G,102%
T101L,100%
R163T,88.4%
A158C,99.4%
S140F,34.2%
E174N,86.9%
T173H,96.1%
A170V,88.8%

# Sample 5
# Target: RING finger protein unkempt homolog, zinc fingers 1-6, SBP tag (UNK, Homo sapiens, UniProt Q9C0B0, residues 30-357)
# Sequence of UniProt Q9C0B0 (30-357, looked up): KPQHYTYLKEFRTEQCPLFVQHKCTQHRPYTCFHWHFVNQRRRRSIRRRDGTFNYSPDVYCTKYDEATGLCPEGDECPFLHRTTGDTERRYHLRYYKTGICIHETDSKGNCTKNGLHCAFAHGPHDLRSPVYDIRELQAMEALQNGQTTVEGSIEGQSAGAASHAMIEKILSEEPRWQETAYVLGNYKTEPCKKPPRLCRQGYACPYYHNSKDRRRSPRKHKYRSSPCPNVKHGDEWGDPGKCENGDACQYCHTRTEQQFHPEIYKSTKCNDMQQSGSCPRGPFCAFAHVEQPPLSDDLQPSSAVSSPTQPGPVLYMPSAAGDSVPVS
# Technique: RNA Bind-n-Seq
# Molecule type: RNA
# Sample: in vitro
# Tested at: 100 nM
# Setting: RNA with constant flanks, vertebrate orthologous sites, ends assumed
# Baseline: input RNA pool
# Reading: higher = stronger binding
# All sequences stand within: GGGAGUUCUACAGUCCGACGAUC … CAACAGAGGAUUGAGCAUCA
Strand,bound/input enrichment
AAGUAGUUUUAAGCUUGUUUGCACAGUUCUUUUUUCCAUUGGAGAUGGAAUCCAUUGCCUUAGGUCUUUUUAAAUAGUGUAUUGUUAUUGUUGGGGCUGCCUCUAUGCUUGAAAACCAGU,2.39 ratio
CCCCGAUUUUAGAUGUGAUAUCUAGGCUUUCAUUCCAGUUUGUUUUUGUCUUUUCUUGUUUAGAUAGCAAUCUUUUAAAUUCUUGCAUUUUAGUAAGAAAGCUACCUUUUUAUGGAUGUU,0.73 ratio
AAGAUGGUAGUUGUACAUUAUUUCAUUUAGAAAAUAUAAAAAUUCAUUUUGUUUUGAAGCUAGGUGUUAAACUGGAGUAGCUAUAUUAUACCCCUAGAGAAUGGGGCAGUUGUGCCCUUC,2.08 ratio
GCUCUAGUUCUUAAGAACCAACACUCCCAAAAGAGGUAGAAAAAAGUUUACAACAUAAUCUAGUUUAUGAAGAAGUCUUGUGCUAGAAUACUUUUUUAAAAGUAUUUUUGAAUACCAUUA,0.443 ratio
GCCAAAGGCCAAAUCCCCUCCCCCCUUCUACUGCUUCUACCAACUGGAAGCACAGAGAACUAGAAGUUCAUUUUGUUUUUAAAAAUAUAUGUUGAUUUCUUGUAACAUCCAAUAGGAAUG,0.719 ratio
CCCUCUGAACCCCAUAUCUUCUGUGUCAUAGUGCAGAAGUGUUCUUUUCAAUUACGUUAUUAGUGGACUUGUUUUAAUUUUAGGGAAACUUUCAGUACAGAUACUGUGAGCAUAUUUGGA,2.7 ratio

# Mixed results
Substance,target,test,system,setting,scale,measurement,result
"PhoQ, residues 284 288 289 292 302 303 SSTLSG","PhoP, residues 12 14 15 18 19 LHHVQ (Escherichia coli, UniProt P23836)","Sort-seq, measured: YFP reporter",E. coli,"PhoQ-PhoP variant library, added: 10 µM Mg2+","baseline: high Mg2+ state, higher = stronger signaling",fold induction,0.464
